Published values of several laboratories.
Lines come from different studies, so protocols differ. Values joined by “and” are separate records of one study, mostly repeats; a detail may differ.

Cn1ncc2cc(-c3cncc(Cl)c3N3CCC4(CCNC4=O)CC3)ccc21  log2 fold change (LS174T; gene expression, microarray, item: SLC2A4 mRNA; concentration not given, 24 h; relative to: untreated cells): 2.68
CC(C)c1ccc(N(C)c2ccc3c(c2)OCC[C@H]3CNc2cnccc2C(=O)O)cc1  IC50 (BICR22; cell viability, CellTiter-Glo; 7 days): ≥ 10000 nM
CN1CCCNC(=O)c2cccc(c2)C(=O)NCCCN(C)CCCNc2cccc3c2C(=O)c2cccc(c2C3=O)NCCC1  log2 fold change (SAS; RNA-Seq, item: ZFYVE27 mRNA; 1 µM, 24 h; relative to: untreated cells): -1.62
O=C(CCCn1cnc([N+](=O)[O-])n1)Nc1ccc(F)c(Cl)c1  relative translation (Trypanosoma cruzi; reporter mRNA translation, inhibitor, item: capped polyadenylated Renilla luciferase mRNA; cell-free extract; concentration not given; relative to: control RNA): 101%
CO[C@@H]1[C@@H](OC(N)=O)[C@@H](O)[C@H](Oc2ccc3c(O)c(NC(=O)c4ccc(O)c(CC=C(C)C)c4)c(=O)oc3c2C)OC1(C)C  colony count (HCT-116 parental; 50 µM, replicate 1): 19.5
CCN(CC)CC(=O)Nc1cccc(-n2cc(-c3ccc4ccc(-c5cn(-c6cccc(NC(=O)CN(CC)CC)c6)nn5)cc4c3)nn2)c1  fold regulation (RCC4; PCR angiogenesis array, item: NRP2; 5 x IC50, 2 h, normoxia; relative to: untreated): 1.03
COc1ccccc1-c1ccncc1C(=O)Nc1nnc(OCc2ccc(Cl)cc2)s1  change in MMEJ frequency (U2OS EJ2-GFP; EJ2-GFP reporter, GFP+/dsRed+ ratio; 10 µM, added: I-SceI transfection; relative to: DMSO): 13.5% and 6.7%
CCCn1ncc(CN2CCCC(C(=O)c3cccc(OC(C)C)c3)C2)c1C (stereo not drawn)  relative translation (Trypanosoma cruzi; reporter mRNA translation, inhibitor, item: capped polyadenylated Renilla luciferase mRNA; cell-free extract; concentration not given; relative to: control RNA): 96%
CCOc1cncc(-c2ccc(NC(=O)C3(c4ccnc(NS(=O)(=O)C5CC5)n4)CCOCC3)nc2)n1  IC50 (KU-19-19; cell growth or viability, ATP luminescence; 72 h): 44 nM
CNS(=O)(=O)Nc1nccc(Cc2c(C)c3ccc(Oc4ncccc4F)cc3oc2=O)c1F  IC50 (SU.86.86; cell viability; 7 days): > 1000 nM
Cc1ncsc1-c1ccc(C(C)NC(=O)C2CC(O)CN2C(=O)C(NC(=O)CCCCCCCCCCN2CCCC(Nc3ncc(Cl)c(Nc4ccccc4S(=O)(=O)C(C)C)n3)C2)C(C)(C)C)cc1 (stereo not drawn)  log2 fold change (22Rv1; RNA-seq, item: WNT2B mRNA; concentration not given; relative to: DMSO): -1.5
C=C1C(=O)OC2C1CCC(C)(O)C13C=CC(C)(C21)C1(C3)C(=O)OC2C3C(C)C(=O)CC3C(=C)CC(OC(C)=O)C21 (stereo not drawn)  acetylation (AML12; Western blot, item: PGC-1α; concentration not given, added: palmitate/oleate): decreased

Some of these lines once more:
CNS(=O)(=O)Nc1nccc(Cc2c(C)c3ccc(Oc4ncccc4F)cc3oc2=O)c1F  IC50 (SU.86.86; cell viability; 7 days): > 1000 nM
